Published values gathered from unrelated publications.
± marks the error that the study gave.
CYP2C9: Cytochrome P450 2C9 (CYP2C9, Homo sapiens, UniProt P11712)
UniProt P11712, sequence (whole entry, looked up): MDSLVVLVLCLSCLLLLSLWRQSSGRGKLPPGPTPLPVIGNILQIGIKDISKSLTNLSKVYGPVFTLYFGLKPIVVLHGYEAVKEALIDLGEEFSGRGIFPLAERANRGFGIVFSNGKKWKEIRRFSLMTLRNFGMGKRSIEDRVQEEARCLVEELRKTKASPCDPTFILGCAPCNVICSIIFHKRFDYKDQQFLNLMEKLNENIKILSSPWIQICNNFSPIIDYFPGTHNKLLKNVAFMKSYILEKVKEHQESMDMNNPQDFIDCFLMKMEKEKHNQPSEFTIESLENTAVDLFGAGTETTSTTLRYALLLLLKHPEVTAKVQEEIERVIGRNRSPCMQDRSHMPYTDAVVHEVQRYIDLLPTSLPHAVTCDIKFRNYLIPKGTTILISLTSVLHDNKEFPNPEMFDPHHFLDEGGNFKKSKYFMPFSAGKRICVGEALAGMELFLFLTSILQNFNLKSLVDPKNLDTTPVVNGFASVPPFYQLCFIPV
AHR: Aryl hydrocarbon receptor (AHR, Delphinapterus leucas, UniProt Q95LD9)
UniProt Q95LD9, sequence (whole entry, looked up): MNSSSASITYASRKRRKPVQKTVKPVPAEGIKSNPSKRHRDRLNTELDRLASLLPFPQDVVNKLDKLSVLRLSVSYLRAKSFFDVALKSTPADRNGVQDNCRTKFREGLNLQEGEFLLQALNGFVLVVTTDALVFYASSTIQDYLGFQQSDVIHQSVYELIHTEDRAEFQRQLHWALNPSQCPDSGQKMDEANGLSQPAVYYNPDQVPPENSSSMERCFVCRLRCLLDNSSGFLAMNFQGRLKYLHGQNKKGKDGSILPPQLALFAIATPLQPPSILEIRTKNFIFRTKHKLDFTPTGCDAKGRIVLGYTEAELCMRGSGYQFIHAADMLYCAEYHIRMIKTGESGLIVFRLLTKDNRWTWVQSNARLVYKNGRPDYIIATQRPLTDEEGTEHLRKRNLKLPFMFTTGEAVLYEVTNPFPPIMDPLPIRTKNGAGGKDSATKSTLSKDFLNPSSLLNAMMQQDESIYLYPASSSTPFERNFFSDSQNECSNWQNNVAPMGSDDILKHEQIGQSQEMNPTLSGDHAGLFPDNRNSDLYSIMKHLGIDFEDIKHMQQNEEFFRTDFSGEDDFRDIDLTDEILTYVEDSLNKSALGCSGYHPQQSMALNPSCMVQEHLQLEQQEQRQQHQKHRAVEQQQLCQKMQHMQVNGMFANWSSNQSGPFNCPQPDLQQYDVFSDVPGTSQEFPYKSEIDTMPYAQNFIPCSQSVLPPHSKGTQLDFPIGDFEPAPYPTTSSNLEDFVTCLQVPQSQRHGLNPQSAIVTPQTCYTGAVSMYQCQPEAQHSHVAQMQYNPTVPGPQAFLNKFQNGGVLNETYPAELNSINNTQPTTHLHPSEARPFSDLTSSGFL
CYP2A6: Cytochrome P450 2A6 (CYP2A6, Homo sapiens, UniProt P11509)
UniProt P11509, sequence (whole entry, looked up): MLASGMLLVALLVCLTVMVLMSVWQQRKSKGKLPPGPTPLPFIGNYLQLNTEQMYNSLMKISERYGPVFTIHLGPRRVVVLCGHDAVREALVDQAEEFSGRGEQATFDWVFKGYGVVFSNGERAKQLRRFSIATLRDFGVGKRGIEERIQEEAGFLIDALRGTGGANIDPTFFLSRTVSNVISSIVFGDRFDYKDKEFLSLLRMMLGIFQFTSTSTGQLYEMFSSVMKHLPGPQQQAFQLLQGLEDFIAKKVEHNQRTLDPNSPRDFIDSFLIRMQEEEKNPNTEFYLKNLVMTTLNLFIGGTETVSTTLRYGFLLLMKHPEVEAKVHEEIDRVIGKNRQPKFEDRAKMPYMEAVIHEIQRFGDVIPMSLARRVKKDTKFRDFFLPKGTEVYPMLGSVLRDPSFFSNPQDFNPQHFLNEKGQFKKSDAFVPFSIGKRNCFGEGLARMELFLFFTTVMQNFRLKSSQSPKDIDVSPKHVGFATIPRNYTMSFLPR
NR1I2: Nuclear receptor subfamily 1 group I member 2 (NR1I2, Homo sapiens, UniProt O75469)
UniProt O75469, sequence (whole entry, looked up): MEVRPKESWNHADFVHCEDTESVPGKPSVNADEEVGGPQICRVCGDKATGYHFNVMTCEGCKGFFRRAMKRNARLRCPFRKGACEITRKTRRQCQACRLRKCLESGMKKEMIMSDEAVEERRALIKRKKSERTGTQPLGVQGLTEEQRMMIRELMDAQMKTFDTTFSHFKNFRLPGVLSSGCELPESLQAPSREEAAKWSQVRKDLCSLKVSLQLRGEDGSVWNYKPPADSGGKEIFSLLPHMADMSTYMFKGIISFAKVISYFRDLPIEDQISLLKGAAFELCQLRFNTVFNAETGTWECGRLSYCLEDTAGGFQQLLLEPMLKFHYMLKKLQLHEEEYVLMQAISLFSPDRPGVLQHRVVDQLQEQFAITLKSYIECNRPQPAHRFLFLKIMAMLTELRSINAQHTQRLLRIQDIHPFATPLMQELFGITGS
UniProt Q9UNQ0, sequence (whole entry, looked up): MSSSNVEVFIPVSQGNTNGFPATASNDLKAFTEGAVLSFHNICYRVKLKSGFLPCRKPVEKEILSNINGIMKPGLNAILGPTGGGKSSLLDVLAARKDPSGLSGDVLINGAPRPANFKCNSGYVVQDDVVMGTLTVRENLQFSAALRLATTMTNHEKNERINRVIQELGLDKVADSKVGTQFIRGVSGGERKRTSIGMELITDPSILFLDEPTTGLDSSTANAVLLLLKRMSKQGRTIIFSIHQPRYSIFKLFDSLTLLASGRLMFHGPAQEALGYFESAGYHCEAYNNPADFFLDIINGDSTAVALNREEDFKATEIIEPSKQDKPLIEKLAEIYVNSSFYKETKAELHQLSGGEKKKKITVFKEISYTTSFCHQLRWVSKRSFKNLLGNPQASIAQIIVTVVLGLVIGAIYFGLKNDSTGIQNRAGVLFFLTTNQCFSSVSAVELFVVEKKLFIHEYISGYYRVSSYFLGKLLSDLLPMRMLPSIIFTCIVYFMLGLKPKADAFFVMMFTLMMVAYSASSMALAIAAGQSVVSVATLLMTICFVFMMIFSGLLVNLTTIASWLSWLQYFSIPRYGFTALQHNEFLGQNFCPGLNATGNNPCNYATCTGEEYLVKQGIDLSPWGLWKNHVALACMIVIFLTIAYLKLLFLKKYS
UniProt O60656, sequence (whole entry, looked up): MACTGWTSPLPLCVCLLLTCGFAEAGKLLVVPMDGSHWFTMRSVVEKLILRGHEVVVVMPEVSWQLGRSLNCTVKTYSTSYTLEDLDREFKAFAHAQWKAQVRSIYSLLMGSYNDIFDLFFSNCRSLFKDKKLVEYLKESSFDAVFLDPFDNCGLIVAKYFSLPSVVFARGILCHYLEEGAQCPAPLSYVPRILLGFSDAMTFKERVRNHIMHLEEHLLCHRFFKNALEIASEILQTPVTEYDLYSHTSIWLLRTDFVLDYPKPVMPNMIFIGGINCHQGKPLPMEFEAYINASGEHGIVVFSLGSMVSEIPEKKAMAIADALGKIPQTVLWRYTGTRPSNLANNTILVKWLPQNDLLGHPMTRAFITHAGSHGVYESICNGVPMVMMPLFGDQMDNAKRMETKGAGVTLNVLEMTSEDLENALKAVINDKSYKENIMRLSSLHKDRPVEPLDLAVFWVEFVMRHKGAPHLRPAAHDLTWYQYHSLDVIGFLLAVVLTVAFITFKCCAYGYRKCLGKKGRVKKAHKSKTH
UniProt P08682, sequence (whole entry, looked up): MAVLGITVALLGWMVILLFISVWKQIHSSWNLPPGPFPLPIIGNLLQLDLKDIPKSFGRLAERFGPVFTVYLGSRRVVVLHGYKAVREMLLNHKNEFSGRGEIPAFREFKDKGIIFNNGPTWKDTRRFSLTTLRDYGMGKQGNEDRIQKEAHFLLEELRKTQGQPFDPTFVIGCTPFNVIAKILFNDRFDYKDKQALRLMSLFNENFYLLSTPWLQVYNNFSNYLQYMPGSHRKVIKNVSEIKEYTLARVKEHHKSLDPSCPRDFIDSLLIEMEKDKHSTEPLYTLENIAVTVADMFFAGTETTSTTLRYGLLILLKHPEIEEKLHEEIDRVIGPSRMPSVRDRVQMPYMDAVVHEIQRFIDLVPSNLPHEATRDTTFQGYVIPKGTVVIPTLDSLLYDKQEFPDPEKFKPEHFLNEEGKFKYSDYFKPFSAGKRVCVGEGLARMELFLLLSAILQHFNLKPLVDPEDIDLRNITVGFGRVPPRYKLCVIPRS
UniProt P07288, sequence (whole entry, looked up): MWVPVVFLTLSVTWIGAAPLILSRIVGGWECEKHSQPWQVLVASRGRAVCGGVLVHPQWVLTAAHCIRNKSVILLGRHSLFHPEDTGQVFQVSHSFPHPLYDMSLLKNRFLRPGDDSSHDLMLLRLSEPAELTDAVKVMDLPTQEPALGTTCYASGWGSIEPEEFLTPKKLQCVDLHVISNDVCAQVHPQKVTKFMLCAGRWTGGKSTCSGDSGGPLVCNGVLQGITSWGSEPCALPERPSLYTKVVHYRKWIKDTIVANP

`CCC[S+]([O-])c1ccc2[nH]c(NC(=O)OC)nc2c1` (stereo not drawn) gave an inhibition of 6.08% (CYP2C9; inhibitor; human liver microsomes; 2 µM, pH 7.4, together with: diclofenac).
`Clc1ccc(-c2cc(Cl)c(Cl)cc2Cl)cc1Cl` gave a Ki of 1440 nM (AHR; binding, competitor; in vitro expressed receptor, together with: [3H]TCDD).
`Cc1ncccc1NC(=O)c1ccc2c(c1)CC[C@@H]1C[C@@](O)(C(F)(F)F)CC[C@@]21Cc1ccccc1` has a Ki of 3000 nM (CYP3A4/5, human; time-dependent inhibitor, measured: 1'-hydroxymidazolam; pooled human liver microsomes; saturation not achieved, together with: midazolam 23 µM).
With `CSc1nc2cc(Cl)c(Oc3cccc(Cl)c3Cl)cc2[nH]1` the inhibition was 99.5% (CYP2C9; inhibitor; human liver microsomes; 10 µM, pH 7.4, together with: diclofenac).
`CC[N+]1=C(C=CC=CC=C2N(CCCCCC(=O)NCCN3C(=O)CC(SC[C@@H](NC(=O)[C@@H](CCCNC(=N)N)NC(=O)[C@@H](CCCNC(=N)N)NC(=O)[C@@H](CCCNC(=N)N)NC(=O)[C@@H](CCCNC(=N)N)NC(=O)[C@@H](CCCNC(=N)N)NC(=O)[C@@H](CCCNC(=N)N)NC(=O)[C@@H](CCCNC(=N)N)NC(=O)[C@@H](CCCNC(=N)N)NC(=O)[C@@H](CCCNC(=N)N)NC(=O)[C@H](CC(C)C)NC(=O)[C@H](CCCCN)NC(=O)[C@H](CC(C)C)NC(=O)[C@H](CCC(N)=O)NC(=O)[C@H](CC(C)C)NC(=O)[C@H](CCCNC(=N)N)NC(=O)CCCCCNC(=O)[C@@H](CCC(=O)O)NC(=O)[C@@H](CCC(=O)O)NC(=O)[C@@H](CCC(=O)O)NC(=O)[C@@H](CCC(=O)O)NC(=O)[C@@H](CCC(=O)O)NC(=O)[C@@H](CCC(=O)O)NC(=O)[C@@H](CCC(=O)O)NC(=O)[C@@H](CCC(=O)O)NC(=O)[C@H](N)CCC(=O)O)C(N)=O)C3=O)c3ccc(S(=O)(=O)O)cc3C2(C)C)C(C)(C)c2cc(S(=O)(=O)[O-])ccc21` (stereo partly drawn) has a cleavage of less than 3% (Prostate-specific antigen (Homo sapiens, UniProt P07288); substrate; 5 µM).
`C=C(C)[C@@H]1CCC(C)=C[C@H]1c1c(O)cc(CCCCC)cc1O` gave an inhibition of 55% (CYP2A6; nicotine C-oxidation to cotinine, inhibitor; microsomes of overexpressing HEK293 cells; 1 µM, 30 min, pH 7.4, together with: nicotine 100 µM).
`Clc1cc(-c2cc(Cl)c(Cl)c(Cl)c2)cc(Cl)c1Cl` has a Ki of 7.5 nM (AHR; binding, competitor; in vitro expressed receptor, together with: [3H]TCDD).
`Clc1ccc(Cl)c(-c2cc(Cl)c(Cl)cc2Cl)c1` gave a fold induction of 3.3 ± 5 fold (NR1I2; reporter gene, agonist, luciferase; COS-7; 24 h; baseline: DMSO).
`Oc1ccc(/C=C/c2cc(O)cc(O)c2)cc1` has a Km of 28.9 ± 3.3 µM (UGT1A9 human recombinant; substrate, measured: 3-glucuronide; pH 7.4).
With `O=C1Nc2ccc(Cl)cc2[C@@](C#CC2CC2)(C(F)(F)F)O1` the PXR activation was roughly 4.3 fold (NR1I2; reporter gene, activator; HepG2 transfected; 10 µM, 24 h; baseline: DMSO).
`C[C@@H]1CC[C@]2(C(=O)O)CC[C@]3(C)C(=CC[C@@H]4[C@@]5(C)CC[C@H](O)[C@@](C)(CO)[C@@H]5CC[C@]43C)[C@@H]2[C@]1(C)O` gave a remaining activity of 84.5% (CYP3A4/5; midazolam 1'-hydroxylation, inhibitor, probe cocktail incubation; pooled human liver microsomes; 50 µM, 20 min, together with: midazolam 1.535 µM).
`N#Cc1ccc(N2N=C3c4ccc(C(=O)N5CCC(O)CC5)nc4CC[C@@H]3[C@@H]2C2CCCC2)cc1Cl` gave an IC50 of 1320 nM (ABCG2 (Homo sapiens, UniProt Q9UNQ0); transporter uptake, inhibitor).
`Clc1ccc(-c2cc(Cl)c(Cl)c(Cl)c2)cc1` gave a Ki of 19 nM (AHR; binding, competitor; in vitro expressed receptor, together with: [3H]TCDD).
`O=C(O)COc1ccc(C(=O)c2cccs2)c(Cl)c1Cl` — result for inhibition: “no effect” (CYP2C8 human; M2 formation from THC, inhibitor; human liver microsomes; 50 µM, six individual donors, together with: THC 2 µM).
The fold induction of `Clc1cc(Cl)c(-c2ccc(Cl)c(Cl)c2Cl)cc1Cl` is reported as 1.1 ± 0.1 fold (PXR (polar bear); reporter gene, agonist, luciferase; COS-7; 24 h; baseline: DMSO).
`C#CCOCc1ccc(-c2ccccc2)cc1` gave a Kd of 43000 nM (CYP2A6; binding, absorbance; pH 7.4).
With `CC(C)C[C@@H]1NC(=O)[C@H](C)NC(=O)[C@H](CCCCN)NC(=O)[C@H](C)NC(=O)[C@@H](NC(=O)CNC(=O)[C@H](CCCCN)NC(=O)[C@H](CC(C)C)NC(=O)[C@H](CC(C)C)NC(=O)[C@H](CC(=O)O)NC(=O)[C@H](CCCCN)NC(=O)[C@H](Cc2ccccc2)NC(=O)CN)CSCc2ccc(cc2)-c2ccc(cc2)CSC[C@@H](C(=O)N[C@H](C(=O)N[C@@H](CC(C)C)C(=O)N[C@@H](Cc2ccccc2)C(N)=O)C(C)C)NC(=O)[C@H](CCCCN)NC(=O)[C@H](C(C)C)NC1=O` the half-life was 3.08 h (trypsin; proteolytic stability, substrate, HPLC; 0.025 nM, pH 7.4, together with: trypsin 0.5 ng/µL).
The Ki of `c1cn[nH]c1` is reported as 140000 nM (CYP2E1 (Oryctolagus cuniculus, UniProt P08682); inhibitor; pH 7.4, 37 °C, catalytic site, together with: 4-nitrophenol).
`c1cn[nH]c1` has a Ki of 35500 nM (Cytochrome P450 2E1 (Cyp2e1, Rattus norvegicus, UniProt P05182); enzyme activity, inhibitor; liver microsomes; 10 min, 37 °C, together with: chlorzoxazone).
For `C#CCOc1ccc2c(C(F)(F)F)cc(=O)oc2c1`, the KI was 14000 nM (human CYP3A4; enzyme inactivation, inactivator; reconstituted system; together with: BFC O-debenzylation substrate).
With `C#CCOCc1ccc2ccccc2c1` the Kd was 21000 nM (CYP2A6; binding, absorbance; pH 7.4).
With `Brc1ccc(Oc2ccc(Br)cc2Br)c(Br)c1` the fold induction was 5.8 ± 0.6 fold (NR1I2; reporter gene, agonist, luciferase; COS-7; 24 h; baseline: DMSO).
`CC[C@H](C)[C@@H]1NC(=O)[C@H](CCC(=O)O)NC(=O)[C@@H]2CSSC[C@H](NC(=O)[C@H](Cc3ccc(O)cc3)NC(=O)[C@H](CO)NC(=O)[C@@H](NC(=O)[C@H](C)N)[C@@H](C)O)C(=O)N[C@@H](CCCNC(=N)N)C(=O)N[C@@H]([C@@H](C)O)C(=O)NCC(=O)N[C@@H](CCCNC(=N)N)C(=O)N[C@@H](CSSC[C@@H](C(=O)N[C@@H](CO)C(=O)N[C@@H](CCCNC(=N)N)C(=O)O)NC(=O)[C@H](CC(C)C)NC(=O)[C@H](CCCNC(=N)N)NC(=O)[C@H](Cc3ccc(O)cc3)NC(=O)[C@H](CC(C)C)NC(=O)[C@H](CCCNC(=N)N)NC(=O)CNC(=O)[C@H](CO)NC1=O)C(=O)N[C@@H](C)C(=O)N[C@@H]([C@@H](C)O)C(=O)N[C@@H](CCCNC(=N)N)C(=O)N[C@@H](CCC(=O)O)C(=O)N[C@@H](CO)C(=O)N[C@@H](CC(C)C)C(=O)N[C@@H](CO)C(=O)NCC(=O)N[C@@H](C(C)C)C(=O)N2` — result for “time to full digestion”: greater than 2 min (trypsin; proteolytic degradation, substrate; 80 µM, pH 8.2, room temperature).
`Oc1cc(O)cc(/C=C/c2ccc(O)c(O)c2)c1` gave a Km of 32.8 ± 2.4 µM (UGT1A9 human recombinant; substrate, measured: 3-glucuronide; pH 7.4).
`CCC1(c2ccccc2)NC(=O)N(Cc2ccccc2)C1=O` (single isomer, unassigned; (+)) — result for inhibition: “no inhibition” (CYP (human); THC M4 formation, inhibitor; human liver microsomes; 5 µM, together with: THC 2 µM).
The Kd of `C#CCOc1ccc(-c2ccccc2)cc1` is reported as 750 nM (CYP2A6; binding, absorbance; pH 7.4).
The EC50 of `O=Cc1c2[nH]c3ccccc3c2cc2[nH]c3ccccc3c12` is reported as 0.04 ± 0.01 nM (CYP1A; EROD activity, inducer; Hepa-1c1c7 (mouse); 3 h).
The Km of `CCc1c2c(nc3ccc(O)cc13)-c1cc3c(c(=O)n1C2)COC(=O)[C@]3(O)CC` is reported as 26.4 µM (UGT1A9 (Homo sapiens, UniProt O60656); substrate; pH 7.4, 37 °C).
For `CC1=C(/C=C/C(C)=C/C=C/C(C)=C/C=C/C=C(C)/C=C/C=C(C)/C=C/C2=C(C)C[C@H](O)CC2(C)C)C(C)(C)C[C@H](O)C1`, the Kd was 1300 nM (Albumin (ALB, Homo sapiens, UniProt P02768); binding, SPR).
`CCC#Cc1ccc(-c2ccccc2)cc1` gave a Kd of 12000 nM (CYP2A6; binding, absorbance; pH 7.4).
For `Clc1cc(Cl)c(-c2c(Cl)cc(Cl)c(Cl)c2Cl)cc1Cl`, the fold induction was 2.9 ± 0.5 fold (NR1I2; reporter gene, agonist, luciferase; COS-7; 24 h; baseline: DMSO).
For `calcein AM`, the Km was 3.1 ± 0.5 µM (ABCB1 (Homo sapiens, UniProt P08183); ATPase activity, substrate; membranes; together with: ATP 1 mM).
`CC(=O)C(O)C(c1ccccc1)c1c(O)c2ccccc2oc1=O` (stereo not drawn) has a Ki of 2200 nM (CYP2C9; enzyme activity, inhibitor; human, liver microsomes).
For `CCN(CC)C(=S)S`, “MT formation rate” read “inhibited” (CYP isoforms, human; inhibitor; human liver microsomes; Ki and twice Ki, 1.5 h, 37 °C, together with: OMT 50 µM; baseline: no inhibitor).
`O=c1cc(-c2ccccc2)oc2ccc3ccccc3c12` gave a fold induction of 2.8 ± 0.4 fold (NR1I2; reporter gene, agonist, luciferase; COS-7; 24 h; baseline: DMSO).
`C#CCOc1ccccc1-c1ccccc1OCC#C` gave a Kd of 32000 nM (CYP2A6; binding, absorbance; pH 7.4).

Some of these lines once more:
`CC[C@H](C)[C@@H]1NC(=O)[C@H](CCC(=O)O)NC(=O)[C@@H]2CSSC[C@H](NC(=O)[C@H](Cc3ccc(O)cc3)NC(=O)[C@H](CO)NC(=O)[C@@H](NC(=O)[C@H](C)N)[C@@H](C)O)C(=O)N[C@@H](CCCNC(=N)N)C(=O)N[C@@H]([C@@H](C)O)C(=O)NCC(=O)N[C@@H](CCCNC(=N)N)C(=O)N[C@@H](CSSC[C@@H](C(=O)N[C@@H](CO)C(=O)N[C@@H](CCCNC(=N)N)C(=O)O)NC(=O)[C@H](CC(C)C)NC(=O)[C@H](CCCNC(=N)N)NC(=O)[C@H](Cc3ccc(O)cc3)NC(=O)[C@H](CC(C)C)NC(=O)[C@H](CCCNC(=N)N)NC(=O)CNC(=O)[C@H](CO)NC1=O)C(=O)N[C@@H](C)C(=O)N[C@@H]([C@@H](C)O)C(=O)N[C@@H](CCCNC(=N)N)C(=O)N[C@@H](CCC(=O)O)C(=O)N[C@@H](CO)C(=O)N[C@@H](CC(C)C)C(=O)N[C@@H](CO)C(=O)NCC(=O)N[C@@H](C(C)C)C(=O)N2` — result for “time to full digestion”: greater than 2 min (trypsin; proteolytic degradation, substrate; 80 µM, pH 8.2, room temperature).
`CCC[S+]([O-])c1ccc2[nH]c(NC(=O)OC)nc2c1` (stereo not drawn) gave an inhibition of 6.08% (CYP2C9; inhibitor; human liver microsomes; 2 µM, pH 7.4, together with: diclofenac).
